Experimental data collected from several papers.
Numbered parts are unrelated; each lists some results of a single study. Substitutions count along the parent as printed.

Series 1 — technique: DHFR PCA, dose-response; sample: yeast; setting: Hill fit, not affinity; together with: (+)-ABA, dose series; reading: lower = more sensitive; quantity: ABA EC50
Target: ABI1, truncated, D143A, DHFR fusion (Arabidopsis thaliana, UniProt P49597)
Starting sequence: PYL1, truncated, DHFR fusion (Arabidopsis thaliana, UniProt Q8VZS8); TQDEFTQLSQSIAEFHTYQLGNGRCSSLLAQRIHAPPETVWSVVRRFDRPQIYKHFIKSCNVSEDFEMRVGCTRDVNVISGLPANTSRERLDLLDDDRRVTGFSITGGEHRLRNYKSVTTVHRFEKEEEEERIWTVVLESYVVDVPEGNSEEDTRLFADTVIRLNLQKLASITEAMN
E131K: 4.49 µM
N85S: 1.25 µM
V78W: 3.23 µM
R69K: 1.7 µM
T106V: 0.749 µM
N77H: 2.19 µM
N22P: 4.04 µM

Series 2 — technique: protein-binding microarray; form: double-stranded DNA, one strand shown; sample: in vitro; concentration: 940 nM top; setting: 60-bp whole probe; together with: salmon DNA 0.4 mg/ml; reference: random background probes; reading: higher = stronger binding; quantity: fitted relative affinity; shared flanks, not repeated: GCCTAGCAC … GTCTTGATTCGCTTGACGCTGCTG
Target: Interferon regulatory factor 5, full length, phosphomimetic (IRF5, Homo sapiens, UniProt Q13568-2, residues 1-514, S451D/S453D/S456D/S462D)
GACGATATCGGGTTTCCAGACGTGCTA: 0.21 z-score
GACGATCTCTGTATCGAGACGTGCTAG: 0.709 z-score
ATTGGTTGAACATGAACTTCGTGCTAG: -0.41 z-score
TTAGGTTTTGGGACTGGGTTAGTGCTA: 1.12 z-score
CAATATTTGCAACATCCCAATGTGCTA: 0.659 z-score
TTAGGTTTCATTTCCCTTTAGTGCTAG: 6.46 z-score
GACGGTATCGGGACTGGGGATGTGCTA: 3.1 z-score
GACGGTTTCCTTCTCTTGACGTGCTAG: 1.85 z-score
GTTGTTTTAAATTCTAATTAGTGCTAG: 0.136 z-score
GACGGTCTCGCTCTCGGGACGTGCTAG: 1.68 z-score
TTAGATATCAGTATCGAGTAGTGCTAG: 1.62 z-score
GATGAACTGGGGACTGGAGACGTGCTA: -0.0674 z-score
GACGGATTGGGTCTCGGGACGTGCTAG: 0.419 z-score
TCAGTATTTTTTCTGAAACTGTGCTAG: 0.591 z-score
TTACATTTTAATTTTATTTGGTGCTAG: 0.692 z-score
TCAATTTTCTGAATGCCACTGTGCTAG: 0.136 z-score
TTAGATTTCAGTTTCGAGTAGTGCTAG: 4.85 z-score
TCAGGTCTTCACTTGGCACTGTGCTAG: -0.173 z-score
CTTCCTCTTTCACTGGTCCTGTGCTAG: 1.6 z-score
GATGAATAAAGCGTTGCTGCGTGCTAG: -0.437 z-score

Series 3 — technique: RNA Bind-n-Seq; form: RNA; sample: in vitro; concentration: not given; reference: input RNA pool; reading: higher = stronger binding; quantity: bound/input enrichment
Target: RING finger protein unkempt homolog, zinc fingers 1-6, GST-SBP tag (UNK, Homo sapiens, UniProt Q9C0B0, residues 30-357)
Chain of UniProt Q9C0B0 (30-357, looked up): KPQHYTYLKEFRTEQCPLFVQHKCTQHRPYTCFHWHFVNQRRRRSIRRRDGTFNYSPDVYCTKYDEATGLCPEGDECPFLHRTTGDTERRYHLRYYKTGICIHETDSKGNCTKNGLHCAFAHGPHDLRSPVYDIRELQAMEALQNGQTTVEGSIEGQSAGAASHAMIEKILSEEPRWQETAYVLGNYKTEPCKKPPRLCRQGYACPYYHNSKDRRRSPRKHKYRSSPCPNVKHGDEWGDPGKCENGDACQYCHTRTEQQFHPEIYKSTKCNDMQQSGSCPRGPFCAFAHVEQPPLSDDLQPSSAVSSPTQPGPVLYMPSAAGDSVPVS
Setting: RNA with constant flanks, human and mouse sites, ends assumed
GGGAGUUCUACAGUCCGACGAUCUUGGCUACACUUUUCAGUGCAUUGACUGGUUUGCCAUGGAGUCUUUAUAAUACUUUUGUGAUAGAAGAAAAACAUGGCUUCAAUCAACAGACUUUGGGGUUCUUCAUGAAAGAUGCAAUCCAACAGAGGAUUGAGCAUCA: 0.112 ratio
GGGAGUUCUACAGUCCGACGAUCAGAUGGUUCCAGAAAAACGAGCCUCAGCUGGCGAAUGCCUUCGACAUCCUUGGUUGAAUUCUUAGCAGAUUCUACAAAUAUAGCAUUCUGAGCUAGCAAAUUUCUCCCAGUACAUUGGACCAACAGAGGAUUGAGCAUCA: 0.77 ratio
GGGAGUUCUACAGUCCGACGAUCCUGGAGGAACUGCAACUGGAAUCCCCGAAGCUCCAUGCUGAGGCCAUCAAGCGGGAUCCUAACCUGUUCCCCUUUGAGAAGGAAGGGCCACAUUACACACCACCGAUCCCUAACUACCAACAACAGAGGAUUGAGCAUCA: 0.108 ratio
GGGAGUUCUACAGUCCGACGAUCCUUUGAAUCUAAGGGAUAUAAAAAGAACCUAAUUACAGUAGAUACAAUGAAAAUAAUGGCUAUAGAUGUUUGGACUGGAAGCAGUGUGGCCAAUAUGACUUAAAGAGACCUUAAAAUAUACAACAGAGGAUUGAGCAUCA: 31.7 ratio
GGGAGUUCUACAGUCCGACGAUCCUGACACUACUCUUCACUGAGCUGGCAAAAGUAAUAGAAAGCUCAGCGAAGGGUUUCCCUAGUUUUAUUUCUGAUAUGUUAUCUAAGUGCAAAGUUCAGAAAGUGAUUCUUCAUUGUUUGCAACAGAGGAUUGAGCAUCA: 3.76 ratio
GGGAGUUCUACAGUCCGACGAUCCGGAAUUGGGAUGACAUGAAGCACCUGUGGGACUACACAUUUGGACCAGAGAAACUCAAUAUAGACACCAGAAACUGCAAGAUUUUACUUACAGAACCUCCCAUGAAUCCAACCAAAAACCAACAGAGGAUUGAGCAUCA: 0.61 ratio
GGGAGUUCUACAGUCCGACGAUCAAGGAUGCUUUUGAUAAAGGUUCCCUUUUUGGAGGGUCUGUAAAAUUGGCUCUUGCAAGCUUAGGAUAUGAAAAGAGCUGUGUGUUGUUCAAUUGUGCUGCCUUAGCUAGCCAGAUUGCACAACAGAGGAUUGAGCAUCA: 1.04 ratio
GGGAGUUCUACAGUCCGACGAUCAAUUCAUCUAAAGAUGUCUCUGGUGAUUUUUAUAUGUUCCGCUAUAUAAUUGAUGCUUUAUAGUUUUAUCAUAAUCCAACAACUUCAGUUAUAUUUAAUUAUUGUUAAGGAGUUUAAGACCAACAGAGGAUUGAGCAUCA: 1.04 ratio
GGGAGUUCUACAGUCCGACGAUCUUGUGUUUUGUACAGGGCAUUCUCUGUACUAGUUUGUCGUGGUUAUAAAACAAUUAGCAGAAUAGCCUACAUUUGUAUUUAUUUUCUAUUCCAUACUUCUGCCCACGUUGUUUUCUCUCACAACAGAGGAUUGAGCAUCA: 8.47 ratio
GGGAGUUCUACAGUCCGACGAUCCCCAAUGAGUUGCCAUAUAAUGAUUACUUUGAGUAUUUUGGACCAGACUUCAAACUGCAUAUUAGUCCUUCAAACAUGACAAACCAGAACACUCCAGAAUAUAUGGAAAAGAUAAAACAGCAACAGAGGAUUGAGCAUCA: 0.417 ratio
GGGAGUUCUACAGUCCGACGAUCUGCGCCUUUUCUUCCUCUCUUUUUUUUCCCCCUUUCUUUCCCACCCCACCCCCUCCCAAUAAUAGAUUUACUUUACAAUCAUCCACACUGUGGUCUGUGGAUCUUUAAUAUAUAUAUAUACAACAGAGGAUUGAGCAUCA: 3.25 ratio

Series 4 — technique: RNA Bind-n-Seq; form: RNA; sample: in vitro; concentration: 200 nM; setting: whole 134-nt RNA, ends assumed; together with: 150 mM LiCl; reference: input library; reading: higher = stronger binding; quantity: log2 enrichment; library: 7-deaza-guanosine replaces G
Target: Fragile X messenger ribonucleoprotein 1, C-terminal low-complexity region (Fmr1, Mus musculus, UniProt P35922)
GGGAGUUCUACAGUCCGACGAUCUAACUUUAGAGGAGGAUCUGAUGGAUAUGGCAGUGGACGUGGAUUUGGGGAUGGCUAUAAUGGGUAUGGAGGAGGACCUGGAGGUGACAAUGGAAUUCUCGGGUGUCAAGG: 0.748
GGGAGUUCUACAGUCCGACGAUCCACAGACAACACGCACCCACACAGACACAGAGGGAAGGGGUUGGGAUGGGGACAGGGUGCACAGCAGGGCGGCGUAGGACCCCAGCCCCUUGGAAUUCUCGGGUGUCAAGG: 0.205
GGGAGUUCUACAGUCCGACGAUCGUCCUGUGCUACACAUCGUAUGUACCGAAUCAAACCCCCCCAAAUUUUUAAAUUUAAAAAAGUAUUAUGUUACGCCGUUCGGAUCUGCACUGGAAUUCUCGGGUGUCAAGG: 1.67
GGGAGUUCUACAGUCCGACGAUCUACUCAGCACAGAAAUUCAGGAGACACAGACAAGUUCUUCCACGAUGUCGUACAGACGAGAACUAGAGAAAUACCGUGACCUGGAUGAAGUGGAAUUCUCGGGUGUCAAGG: 0.0734
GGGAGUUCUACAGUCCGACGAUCCCUGUGCUACACAUCGUAUGUACCGAAUCGGGGCCCCCCGGGGCCCCCCGGCCCCCCGGGAAAGUAUUAUGUUACGCCGUUCGGAUCUGCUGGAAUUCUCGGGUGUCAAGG: -2.38
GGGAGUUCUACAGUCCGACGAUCUAACUUUAGAGGAGGAUCUGAUGGAUAUGGCAGUGGACCUGGAUUUGGGGAUGGCUAUAAUGGGUAUGGAGGAGGACCUGGAGGUGGCAAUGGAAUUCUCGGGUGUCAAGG: -0.0215
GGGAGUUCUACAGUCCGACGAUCUGUGCUACACAUCGUAUGUACCGAAUCGGGGAAAAAAAGGGAAAAAAAGGGGAAAAAAAGGGGAAAGUAUUAUGUUACGCCGUUCGGAUCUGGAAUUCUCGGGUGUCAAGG: 0.956
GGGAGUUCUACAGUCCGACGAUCUUUAAACUGAAGCCGCGGCCGAAAACGCCAAGAGAUUGAUGCUGUAGCUGCCCUGAGAUAACCAGGACUGUGGAAUCGGGAAGAGCUCAUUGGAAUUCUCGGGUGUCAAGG: -1.84
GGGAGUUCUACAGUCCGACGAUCAAGUCCUGUGCUACACAUCGUAUGUACCGAAUCAAACCCCCAAACCCAAAUUUAAAAAAGUAUUAUGUUACGCCGUUCGGAUCUGCACUUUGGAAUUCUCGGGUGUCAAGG: 0.912
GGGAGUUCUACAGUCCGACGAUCUCCUGUGCUACACAUCGUAUGUACCGAAUCAAACCCCCAAAUUUUUUUAAACCCCCAAAAAAGUAUUAUGUUACGCCGUUCGGAUCUGCAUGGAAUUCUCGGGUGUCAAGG: 1.61
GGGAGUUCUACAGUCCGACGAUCGUCCUGUGCUACACAUCGUAUGUACCGAAUCGGUUUUUGGGGUUUUUGGGGUUUUUGGAAAGUAUUAUGUUACGCCGUUCGGAUCUGCACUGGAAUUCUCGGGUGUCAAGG: -0.444

Series 5 — target: CCNB2, cyclin fold, Cln2 fusion (human); technique: yeast growth competition, sequencing; sample: yeast; setting: weak parent motif; reference: not given; reading: higher = stronger binding; quantity: normalised enrichment score
Starting sequence: RBL2 docking peptide (human); STTRRRLFVENDS; partner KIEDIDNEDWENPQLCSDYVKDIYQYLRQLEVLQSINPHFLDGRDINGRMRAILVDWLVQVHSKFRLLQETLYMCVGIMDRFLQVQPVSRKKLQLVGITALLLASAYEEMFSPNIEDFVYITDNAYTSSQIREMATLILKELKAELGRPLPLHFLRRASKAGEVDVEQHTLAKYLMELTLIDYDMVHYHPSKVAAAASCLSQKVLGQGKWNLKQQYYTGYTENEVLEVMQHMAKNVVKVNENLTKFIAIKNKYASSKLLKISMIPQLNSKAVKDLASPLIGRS
STHRRRLFVENDS [T3H]: 0.211
STTRRRLFVENFS [D12F]: 0.588
STTRRRDFVENDS [L7D]: 0.336
STTRRRLFVENDW [S13W]: 0.388
YTTRRRLFVENDS [S1Y]: 0.472
RTTRRRLFVENDS [S1R]: 1.04
STTRRRLFVENDL [S13L]: 0.708
STTRARLFVENDS [R5A]: -0.156
STTRPRLFVENDS [R5P]: -0.0504
STTRRRLFNENDS [V9N]: 1.25
STTRRRNFVENDS [L7N]: -0.155
STTRRELFVENDS [R6E]: -0.412
STTRRRLFVENWS [D12W]: 0.643
STTRRRLFVSNDS [E10S]: 0.326
STTRRRVFVENDS [L7V]: -0.222
STTRRRLIVENDS [F8I]: 0.397
STTRRRLFVENDV [S13V]: 0.0267
STTLRRLFVENDS [R4L]: -0.338
SITRRRLFVENDS [T2I]: -0.072
MTTRRRLFVENDS [S1M]: 0.151
STTRRRLFVENDF [S13F]: 0.905
STTRRRLFVHNDS [E10H]: 0.589
STTRRRLFVENLS [D12L]: -0.217
STTRRRLFVENDG [S13G]: 0.631
STTRRRLFVFNDS [E10F]: 0.638

Series 6 — target: DDIT3, bZIP domain (human); technique: DHFR protein complementation; sample: yeast; reference: wild-type JUN-FOS pair; reading: higher = stronger binding; quantity: binding fitness
Setting: single substitutions, most at no-binding floor
Starting sequence: JUN, bZIP domain (human); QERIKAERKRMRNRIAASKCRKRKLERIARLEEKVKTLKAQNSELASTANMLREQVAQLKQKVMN; partner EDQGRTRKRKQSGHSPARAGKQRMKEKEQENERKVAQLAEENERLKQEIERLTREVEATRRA
A46Q: 0.0939 natural log
L59G: -0.0995 natural log
M51A: 0.163 natural log
A29Q: -0.0427 natural log
A57G: -0.0803 natural log
K36A: 0.115 natural log
A29I: -0.0283 natural log
R53L: -0.552 natural log
V35R: -0.531 natural log
T37S: 0.018 natural log
V35W: -0.0228 natural log
K39E: 0.191 natural log
T37M: 0.512 natural log
E32Y: -0.757 natural log
A40M: -0.0351 natural log
E44Y: -0.255 natural log

Repeated from above (series 1):
E131K: 4.49 µM
N85S: 1.25 µM
V78W: 3.23 µM
R69K: 1.7 µM
T106V: 0.749 µM
N77H: 2.19 µM
N22P: 4.04 µM
